Assay results pooled from the literature.
Protocols differ between the studies behind these lines. ± marks the error that the study gave.
Target: ATP-dependent translocase ABCB1 (ABCB1, Homo sapiens, UniProt P08183)
Sequence of UniProt P08183 (whole entry, looked up): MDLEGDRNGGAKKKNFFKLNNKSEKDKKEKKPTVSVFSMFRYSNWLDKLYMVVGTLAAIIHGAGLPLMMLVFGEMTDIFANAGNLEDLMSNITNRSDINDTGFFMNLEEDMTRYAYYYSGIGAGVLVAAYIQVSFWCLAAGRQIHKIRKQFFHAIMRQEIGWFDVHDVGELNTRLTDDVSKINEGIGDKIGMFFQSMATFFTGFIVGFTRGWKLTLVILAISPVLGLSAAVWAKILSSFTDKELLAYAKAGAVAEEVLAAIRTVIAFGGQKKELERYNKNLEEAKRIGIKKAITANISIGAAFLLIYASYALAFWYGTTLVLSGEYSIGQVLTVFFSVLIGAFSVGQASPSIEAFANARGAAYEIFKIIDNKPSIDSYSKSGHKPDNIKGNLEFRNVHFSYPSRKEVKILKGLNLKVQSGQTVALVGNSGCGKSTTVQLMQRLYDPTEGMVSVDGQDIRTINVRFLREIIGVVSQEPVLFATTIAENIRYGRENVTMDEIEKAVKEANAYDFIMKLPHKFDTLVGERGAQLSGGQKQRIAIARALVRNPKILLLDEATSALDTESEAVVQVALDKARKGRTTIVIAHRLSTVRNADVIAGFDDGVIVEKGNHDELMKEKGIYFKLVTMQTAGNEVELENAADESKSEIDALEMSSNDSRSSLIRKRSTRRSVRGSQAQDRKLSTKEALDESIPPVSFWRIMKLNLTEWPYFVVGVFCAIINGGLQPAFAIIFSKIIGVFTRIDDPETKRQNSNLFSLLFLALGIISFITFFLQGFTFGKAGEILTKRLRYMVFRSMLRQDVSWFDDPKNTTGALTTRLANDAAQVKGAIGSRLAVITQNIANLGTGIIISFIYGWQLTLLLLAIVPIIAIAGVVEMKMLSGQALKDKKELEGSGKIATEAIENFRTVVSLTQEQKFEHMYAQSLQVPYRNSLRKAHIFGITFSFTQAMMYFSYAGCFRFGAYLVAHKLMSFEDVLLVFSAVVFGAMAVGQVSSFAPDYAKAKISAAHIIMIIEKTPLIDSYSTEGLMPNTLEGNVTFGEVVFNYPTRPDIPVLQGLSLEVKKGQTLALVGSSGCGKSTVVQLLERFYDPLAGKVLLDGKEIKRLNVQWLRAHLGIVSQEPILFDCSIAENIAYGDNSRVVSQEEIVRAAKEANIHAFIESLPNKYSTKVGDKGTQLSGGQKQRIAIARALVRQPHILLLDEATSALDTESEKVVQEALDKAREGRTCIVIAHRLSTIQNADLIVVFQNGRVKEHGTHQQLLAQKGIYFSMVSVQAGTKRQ

CCOc1cc2ncc(C#N)c(Nc3ccc(OCc4ccccn4)c(Cl)c3)c2cc1NC(=O)/C=C/CN(C)C: “net efflux ratio” 4.56 (substrate, bidirectional transwell permeability; MDCKII cells transfected with ABCB1; 1 µM, 1 h, pH 7.4; reference: without over with elacridar).
For Cc1ccc2c(=O)n(-c3ccc(F)cc3)c(CCN3C(=O)c4cccc(OC(C)C)c4C3=O)nc2c1, the efflux ratio was 1.11 (substrate; MDCK-MDR1 cells, HBSS buffer; 1 µM, 90 min, pH 7.4).
With CC1=N[C@]2(C(=O)CO)[C@@H](C[C@H]3[C@@H]4C[C@@H](O)C5=CC(=O)C=C[C@]5(C)[C@H]4[C@@H](O)C[C@@]32C)O1 the IC50 was 19.8 µM (transport, inhibitor, vesicular transport; HEK293 inside-out vesicles).
For CC[C@]1(O)C[C@@H]2CN(CCc3c([nH]c4ccccc34)[C@@](C(=O)OC)(c3cc4c(cc3OC)N(C)[C@H]3[C@@](O)(C(=O)OC)[C@H](OC(C)=O)[C@]5(CC)C=CCN6CC[C@]43[C@@H]65)C2)C1, the Vmax was 17.5 ± 0.5 nmol Pi/min/mg protein (ATPase activity, substrate; membranes; with: ATP 1 mM).
The inhibition of CC(C)[C@H](NC(=O)OC(C)(C)C)c1nc(C(=O)N[C@H](c2nc(C(=O)N[C@H](c3nc(C(=O)O)cs3)C(C)C)cs2)C(C)C)cs1 is reported as < 10% (calcein-AM efflux, flow cytometry; HeLa transduced with BacMam ABCB1; 10 µM, 10 min, 5% FBS, with: calcein-AM 0.5 µM; reference: 1 µM tariquidar).
COc1ccc(C(=O)N2CCN(c3cc(-c4ccccc4)nc4cc(-c5cccc(Cl)c5)nn34)CC2)cc1 gave an IC50 of 2.89 ± 0.55 µM (JC-1 efflux, inhibitor; Jurkat-DNR).
For Cc1ccc(Nc2nccc(N(C)c3ccc4c(C)n(C)nc4c3)n2)cc1S(N)(=O)=O, the Papp A-B was 3.5 ± 0.13 ×10⁻⁶ cm/s (bidirectional transport; MDCK-MDR1; 5 µM, 240 min, with: erlotinib 5 µM).
O=C(c1ccoc1)N1CCN(c2cc(-c3ccccc3)nc3cc(-c4cccc(Cl)c4)nn23)CC1 gave an IC50 of 8.58 ± 0.63 µM (JC-1 efflux, inhibitor; Jurkat-DNR).
COc1ccc(CNC(=O)c2csc([C@@H](NC(=O)c3csc([C@@H](NC(=O)OC(C)(C)C)C(C)C)n3)C(C)C)n2)c(OC)c1 has an inhibition of 91% (calcein-AM efflux, flow cytometry; HeLa transduced with BacMam ABCB1; 10 µM, 10 min, 5% FBS, with: calcein-AM 0.5 µM; reference: 1 µM tariquidar).
C[C@@H](Oc1cc(-c2cnn(C3CCNCC3)c2)cnc1N)c1c(Cl)ccc(F)c1Cl gave an efflux ratio of 10 (transport; MDCK-MDR1; 10 µM, 90 min; reference: B-A over A-B).
COc1cccc(-c2cc3nc(-c4ccccc4)cc(N4CCN(C(=O)c5ccco5)CC4)n3n2)c1 has an IC50 of 4.77 ± 0.63 µM (JC-1 efflux, inhibitor; Jurkat-DNR).
CCOC(=O)c1csc([C@@H](NC(=O)c2csc([C@@H](NC(=O)c3csc([C@@H](NC(=O)OC(C)(C)C)C(C)C)n3)C(C)C)n2)C(C)C)n1 has an inhibition of 75% (Bodipy-FL-prazosin efflux, flow cytometry; HeLa transduced with BacMam ABCB1; 10 µM, 45 min, 5% FBS; reference: 1 µM tariquidar).
O=C(c1ccoc1)N1CCN(c2cc(-c3ccco3)nc3cc(-c4ccco4)nn23)CC1 gave an IC50 of 1.7 µM (JC-1 efflux, inhibitor; Jurkat-DNR).
CCOC(=O)c1csc([C@@H](NC(=O)c2csc([C@@H](NC(=O)OC(C)(C)C)C(C)C)n2)C(C)C)n1 gave an inhibition of 55% (calcein-AM efflux, flow cytometry; HeLa transduced with BacMam ABCB1; 20 µM, 10 min, 5% FBS, with: calcein-AM 0.5 µM; reference: 1 µM tariquidar).

Some of these lines once more:
CCOc1cc2ncc(C#N)c(Nc3ccc(OCc4ccccn4)c(Cl)c3)c2cc1NC(=O)/C=C/CN(C)C: “net efflux ratio” 4.56 (substrate, bidirectional transwell permeability; MDCKII cells transfected with ABCB1; 1 µM, 1 h, pH 7.4; reference: without over with elacridar).
